{"data": "Published values from different studies", "note": "Lines come from different studies, so protocols differ. ± gives the spread as reported."}
{"SMILES": "CCCCCCCCCCCCCCCC(=O)N[C@@H](CCCCN)C(=O)N[C@@H](CCCCN)C(=O)N[C@@H](CO)C(=O)N[C@@H](CCCNC(=N)N)C(=O)N[C@@H](C)C(=O)N[C@@H](CC(C)C)C(=O)N[C@@H](Cc1ccccc1)C(N)=O", "test system": "human patients, plasma", "setting": "intravenous, 0.3 mg/kg over 2 h", "endpoint": "clearance", "value": "130 mL/min"}
{"SMILES": "Cc1noc(C)c1Cn1cc(N2C(=O)CN(Cc3cccc(O[C@@H]4O[C@H](C(=O)O)[C@@H](O)[C@H](O)[C@H]4O)c3)C2=O)cn1", "test system": "Sprague-Dawley rat, male", "setting": "oral, 100 mg/kg of parent drug, 0.25 h", "endpoint": "plasma concentration", "value": "5020 ng/mL"}
{"SMILES": "CNC(=O)C[C@H](Cc1ccc(C#N)cc1)NC(=O)c1cc(-c2ccc(CN[C@H](C)c3ccc(C)cc3)o2)ccc1Cl", "test system": "Caco-2", "endpoint": "Papp A→B", "value": "3.7 ×10⁻⁶ cm/s"}
{"SMILES": "O=C(c1ccccc1)N1C(c2ccc(OCC3CCN(CCCF)C3)cc2)c2ccc(O)cc2CC12CC2 (stereo not shown)", "test system": "C57BL/6J mice, plasma", "setting": "oral, 25 mg/kg", "endpoint": "AUC extrapolated", "value": "1.41%"}
{"SMILES": "C=C(NC(=O)c1csc(-c2nc3c(cc2O)-c2nc(cs2)C(=O)NC(C(C)O)C(=O)NC(=C(C)OC)c2nc(cs2)C(=O)NC2c4nc(cs4)C(=O)NC(COC(=O)c4c5c6c(cccc6n4O)COC(=O)C(OC4CC(C)(O)C(N(C)C)C(C)O4)C2OC5)c2nc-3cs2)n1)C(N)=O (stereo not shown)", "test system": "Sprague-Dawley rats, male, plasma", "setting": "intravenous infusion, 6 mg/kg, day 7, multiple dosing", "endpoint": "AUC(0-inf)", "value": "1600 ng·h/mL"}
{"SMILES": "C/C(N)=N/C(=N\\S(=O)(=O)c1ccc(C(F)(F)F)cc1)N1C[C@H](c2ccccc2)C(c2ccc(Cl)cc2)=N1", "test system": "C57BL/6 mouse, plasma", "setting": "intravenous, 10 mg/kg", "endpoint": "Tmax", "value": "6 min"}
{"SMILES": "COc1cccc(OC)c1-c1cc(C(=O)NC2(C(=O)O)C3CC4CC(C3)CC2C4)nn1-c1ccc(C(=O)N(C)CCCN(C)C(=O)[C@H](CCCCNC(=O)[C@H](CC(C)C)NC(=O)C2OC2C(=O)O)NC(=O)CN2CCN(CC(=O)[O-])CCN(CC(=O)[O-])CCN(CC(=O)[O-])CC2)cc1C(C)C.[177Lu+3] (mixture of isomers)", "test system": "mouse HT-29 xenograft", "setting": "72 h, biodistribution", "scale": "relative to: tumour over large intestine", "endpoint": "tumour-to-large intestine ratio", "value": 11.9}
{"SMILES": "CSCC[C@H](N)C(=O)N[C@@H](CO)C(=O)N[C@H](C(=O)N[C@@H](C)C(=O)NCC(=O)N[C@@H](CC(C)C)C(=O)N[C@@H](CCCCN)C(=O)N[C@@H](CCCCN)C(=O)N[C@@H](CCC(N)=O)C(=O)N[C@@H](Cc1c[nH]c2ccccc12)C(=O)N[C@@H](Cc1ccc(O)cc1)C(=O)N[C@@H](CCCCN)C(=O)N[C@@H](C)C(=O)N[C@@H](CO)C(=O)N[C@@H](CCC(N)=O)C(=O)N[C@@H](CC(C)C)C(=O)N[C@H](C(=O)N[C@@H](CO)C(=O)N[C@@H](CCC(=O)O)C(=O)N[C@@H](CCCCN)C(=O)N[C@H](C(=O)NCC(=O)NCC(=O)N[C@@H](C)C(N)=O)C(C)C)C(C)C)C(C)C", "assay": "circular dichroism", "test system": "100% DOPS liposomes", "setting": "1 mM lipid", "endpoint": "helical content", "value": "55%"}
{"SMILES": "CN(O)C(=O)CCC(=O)NCCCN(CCCCN(CCCNC(=O)CCC(=O)N(C)O)C(=O)CCC(=O)N(C)O)C(=O)CCC(=O)N(C)O.[89Zr]", "test system": "PBS", "setting": "3 days, pH 7, 37 °C", "endpoint": "intact compound", "value": "99.9 ± 0.1%"}
{"SMILES": "CCC1CNC(CC)CN(C(C(=O)[O-])c2ccc(C(=O)[O-])cc2)C(CC)CN(CC(=O)[O-])C(CC)CN1.[Mn+2] (stereo not shown)", "assay": "ICP-MS", "test system": "BALB/c mouse, blood", "setting": "intravenous, 0.05 mmol/kg, 5 min, without anaesthesia", "endpoint": "Mn content", "value": "2.84 ± 0.52 µg/g"}
{"SMILES": "CC[C@H](C)[C@@H]1NC(=O)[C@H](Cc2ccc(O)cc2)NC(=O)CCCSC[C@@H](C(=O)N(CC(=O)N[C@@H](CC(C)C)C(=O)NCC(N)=O)Cc2ccc(F)cc2)NC(=O)[C@H](CC(N)=O)NC(=O)[C@H](CCC(N)=O)NC1=O", "test system": "human", "setting": "intranasal, 50 µg single dose", "endpoint": "subjects with any TEAE", "value": "33%"}
{"SMILES": "O=S(=O)(N[C@H]1CCO[C@@H](C2c3ccccc3CCc3ccccc32)C1)c1ccc(OC(F)(F)F)cc1", "test system": "mouse", "setting": "oral, 30 mg/kg, 2 h", "scale": "relative to: brain over plasma", "endpoint": "tissue/plasma ratio", "value": 1.3}
{"SMILES": "COc1cccc(OC)c1-c1cc(C(=O)NC2(C(=O)O)C3CC4CC(C3)CC2C4)nn1-c1ccc(C(=O)N(C)CCCN(C)CCCN(C)C(=O)[C@H](CCCCNC(=O)[C@H](CC(C)C)NC(=O)C2OC2C(=O)O)NC(=O)CN2CCN(CC(=O)[O-])CCN(CC(=O)[O-])CCN(CC(=O)[O-])CC2)cc1C(C)C.[177Lu+3] (mixture of isomers)", "test system": "mouse, HT-29 xenograft, liver", "setting": "72 h post injection", "endpoint": "tissue uptake", "value": "1 %ID/g"}
{"note": "Repeated from above:"}
{"SMILES": "CCCCCCCCCCCCCCCC(=O)N[C@@H](CCCCN)C(=O)N[C@@H](CCCCN)C(=O)N[C@@H](CO)C(=O)N[C@@H](CCCNC(=N)N)C(=O)N[C@@H](C)C(=O)N[C@@H](CC(C)C)C(=O)N[C@@H](Cc1ccccc1)C(N)=O", "test system": "human patients, plasma", "setting": "intravenous, 0.3 mg/kg over 2 h", "endpoint": "clearance", "value": "130 mL/min"}
